Measurements from different studies.
Compare with care: the assays were run in different laboratories. Several values in a cell are separate wells, animals, samples, runs or records.
Target: 5-hydroxytryptamine receptor 1A (HTR1A, Homo sapiens, UniProt P08908)

SMILES | assay | test system | setting | scale | quantity | value
CN[C@@H]1[C@H](O)[C@H](NC)[C@H]2O[C@]3(O)[C@H](O[C@@H]2[C@H]1O)O[C@H](C)C[C@H]3NC(=O)Cc1ccc(Cl)cn1 | ligand displacement, radioligand |  | 10 µM |  | inhibition | 4%
O=C(O)c1ccc(-c2nc(-c3ccccc3Cl)c3sccn23)cc1 | radioligand binding, safety screen panel |  | 10 µM | relative to: control | specific binding | 59.2% and 66.5%
Cc1cc(-c2ccc3ccccc3c2)nnc1NCCN1CCN(C)CC1 | antagonist |  | concentration not given |  | antagonist activity | negative
CCOC(=O)[C@](CC)(CCCSCCOCCOCCNC(=O)c1ccc(-c2c3ccc(=N)c(S(=O)(=O)O)c-3oc3c(S(=O)(=O)O)c(N)ccc23)c(C(=O)O)c1)NC(=O)c1ccc(C2CC2)c(Cc2ccc(F)cc2)n1 | ligand displacement, radioligand |  | 10 µM |  | inhibition | 1%
N[C@H](C(=O)N1CCCC1)C1CCN(c2nccc3c(-c4ncc(Cl)cc4Cl)cccc23)CC1 | functional response, agonist |  | 10 µM |  | response | 0%
Cc1cc(Nc2nc(C[C@@]3(C(=O)O)CCN(Cc4cccc(Cl)c4F)[C@H](C)C3)cc(C)c2F)[nH]n1 | agonist |  | 10 µM |  | activation | -0.18%
COc1ccccc1N1CCN(CCCCN2CCCc3ccccc3C2=O)CC1 | radioligand binding |  | concentration not given, together with: [3H]8-OH-DPAT |  | inhibition | 97.9%
CCN(CC)CCOc1ccc(-c2nnn(Cc3ccc(OC)cc3)c2N)cc1 | radioligand binding | HEK293 | 10 µM, safety profiling |  | inhibition | -3.03%
COc1ccc(F)cc1S(=O)(=O)Nc1cnc2c(c1)C(=O)NCCO2 | ligand displacement, radioligand |  | 10 µM |  | inhibition | 5%
Cc1sc2c(c1C)C(c1ccc(Cl)cc1)=NC(CC(=O)OC(C)(C)C)c1nnc(C)n1-2 (centres unmarked) | ligand displacement, radioligand |  | 1 µM |  | inhibition | -14%
CS(C)(=O)=Nc1ccc(-c2ccc(-c3nc4cc(O[C@@H]5CO[C@H]6[C@@H]5OC[C@H]6O)[nH]c4cc3F)cc2)cc1 | calcium signal, antagonist |  | 10 µM |  | inhibition | 7%
O=C1c2ccccc2CCCN1CCCCN1CCN(c2cccc(Cl)c2Cl)CC1 | radioligand binding |  | concentration not given, together with: [3H]8-OH-DPAT |  | inhibition | 99%
C/C(=N\OCCCN1CCCCC1)c1ccc(C(F)(F)F)cc1 | antagonist, cAMP |  | 10 µM |  | inhibition | -6.89%
CCc1nnc(-c2c(OC)cc(-c3cnc4cc(-c5cnn(C)c5)ccn34)cc2OC)o1 | agonist radioligand, radioligand binding |  | 10 µM, SafetyScreen44 5-HT1A replicate 2 | lower = stronger displacement | remaining binding | 88%

A few entries again:
SMILES | assay | test system | setting | scale | quantity | value
C/C(=N\OCCCN1CCCCC1)c1ccc(C(F)(F)F)cc1 | antagonist, cAMP |  | 10 µM |  | inhibition | -6.89%
O=C(O)c1ccc(-c2nc(-c3ccccc3Cl)c3sccn23)cc1 | radioligand binding, safety screen panel |  | 10 µM | relative to: control | specific binding | 59.2% and 66.5%
